Published values from different studies.
Compare with care: the assays were run in different laboratories. “And” joins repeats or separate records; there may be more than shown. ± marks the error that the study gave.
UCHL1: Ubiquitin carboxyl-terminal hydrolase isozyme L1 (UCHL1, Homo sapiens, UniProt P09936)
Sequence of UniProt P09936 (whole entry, looked up): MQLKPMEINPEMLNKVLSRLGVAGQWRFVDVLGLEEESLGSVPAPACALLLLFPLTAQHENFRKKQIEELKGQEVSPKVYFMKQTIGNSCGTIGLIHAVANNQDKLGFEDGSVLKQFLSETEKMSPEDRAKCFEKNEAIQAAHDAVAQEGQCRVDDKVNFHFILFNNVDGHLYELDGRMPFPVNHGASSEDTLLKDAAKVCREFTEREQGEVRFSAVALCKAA

SMILES | tested on | assay | test system | conditions | how to read | endpoint | value
CNC(=O)c1ccc(-c2cnc3ncc(Cc4ccc5ncccc5c4)n3n2)cc1F | – | CTCAE v4.0, any causality | human gastric cancer patients | oral, 600 mg twice daily, expansion cohort at RP2D | – | bilirubin increase incidence (all grades) | 11%
COc1cc2c(CCNC(C)=O)c[nH]c2cc1O | – | sulfation, substrate | pooled human liver cytosol | 50 µM, 30 min, with: 50 mM NaF | – | specific activity | 128 ± 6.13 pmol/min/mg
O=C(COc1ccc(Cl)cc1)NC12CC(c3nnc([C@H]4C[C@@H](OC(F)(F)F)C4)o3)(C1)C2 | – | item: Nausea | human | oral, 145 mg once daily, 14 days | – | adverse event incidence | 14.3%
N#CC(Cc1ccc(O)cc1)c1ccc(O)cc1 (centres unmarked) | – | – | rat, Long-Evans, female, serum | subcutaneous, 2 mg/kg single dose | – | aglycone share of AUC(0-inf) | 13%
CC(C)(C)c1ccc(C(O)CCCN2CCC(C(O)(c3ccccc3)c3ccccc3)CC2)cc1 (centres unmarked) | – | – | male Hartley guinea pigs, anaesthetized | intravenous, 0.3 mg/kg group, baseline before infusion | – | mean blood pressure | 34 ± 0.2 mmHg
[Cl][89Zr]([Cl])([Cl])[Cl] | – | radio-TLC | hydrochloric acid | concentration not given, up to 5 days | – | EDTA reactivity | 100%
COCc1cc(C(=O)Nc2cc([C@H]3CC[C@@H](OC(=O)NC(C)C)C3)[nH]n2)n(C)n1 | – | – | OVCAR-3 xenograft, NOD/SCID gamma mice, plasma | oral, 75 twice daily, tumour growth inhibition study | – | unbound C24h | 85 nM
O=C1NCCc2nc(OCc3cccc(F)c3)ccc21 | – | item: Ptosis | Sprague-Dawley rat, male | oral, 100 mg/kg, 1 h, score 0 none to 2 full | direction not given | Irwin test score | 0
CC(C)[C@@H](CS(=O)(=O)C(C)C)N1C(=O)[C@@](C)(CC(=O)O)C[C@H](c2cccc(Cl)c2)[C@H]1c1ccc(Cl)cc1 | – | – | FVB mice Abcg2 knockout, brain | intravenous, 20 mg/kg | – | AUC(0-inf) | 155 ± 27.9 ng·h/mL
Cc1ccc(C=C(C#N)C(=O)Nc2cccc3ccccc23)cc1 | UCHL1 | covalent, intact protein LC-MS | – | 12.5 µM | – | labelling | 14.8%
Cc1nc(-c2ccc(OCC(C)C)c(C#N)c2)sc1C(=O)O | – | – | healthy Chinese subjects | oral, 40 mg, fed | – | subjects with monocyte count increased | 5%
O=C1NC(=O)c2cc(NC(=O)N3CCSSCC3)ccc21 | UCHL1 | covalent, intact protein LC-MS | – | 12.5 µM | – | labelling | 13.1%
CN1CCN(C(=O)CN(c2cc(C(F)(F)F)ccc2Cl)S(=O)(=O)c2ccccc2)CC1 | – | – | – | – | – | pKa | 6.78
Cc1ccc([C@@H]2O[C@H](CO)[C@@H](O)[C@H](O)[C@H]2O)cc1Cc1ccc(-c2ccc(F)cc2)s1 | – | item: inorganic phosphorus | Japanese type 2 diabetes patients | 400 mg, day 4, 24 h urine collection | reference: baseline | urinary phosphate excretion change | 170 mg
[18F]c1ccc(-c2ccc3c(c2)[nH]c2ccncc23)cn1 | – | ex vivo biodistribution | APP/PS1 mouse, AD model, cortex | intravenous, 30 min | – | SUV | 0.39 ± 0.118
CC(C)OC(=O)[C@@H](C)N[P@@](=O)(OC[C@H]1O[C@@H](n2ccc(=O)[nH]c2=O)[C@](C)(Cl)[C@@H]1O)Oc1ccccc1 | – | – | human | oral, dose not given, with: itraconazole | reference: compound alone | intestinal clearance decrease | 55.6%
O=C(c1cccnc1-c1ccncc1)N1CCC(O)(Cc2ccccc2)CC1 | – | – | healthy Japanese adults, plasma | oral, 200 mg single dose | – | AUClast/dose | 3.48 ng·h/mL/mg
C[C@H]1CN(C(=O)CC#N)[C@]12CCN(c1ncnc3[nH]ccc13)C2 | – | – | healthy human | oral, 1.5 mg, single dose | – | subjects with Fatigue | 12.5%
COc1cc2[nH]c(C)c(-c3cccnc3)c(=O)c2cc1Cl | – | – | PAMPA | pH 7.4 | – | Papp | 10 ×10⁻⁶ cm/s
CC/C(=C(\c1ccccc1)c1ccc(OCCN(C)C)cc1)c1ccccc1 | – | – | male Hartley guinea pigs, anaesthetized | intravenous, 10 mg/kg group, baseline before infusion | – | mean blood pressure | 39 ± 0.3 mmHg

SMILES | tested on | assay | test system | conditions | how to read | endpoint | value
Cc1cc(C(=O)NC(C)(C)COc2cccc3c2C(N)=NS(=O)(=O)N3)cc(C)n1 | – | LC-MS metabolite profiling | Sprague-Dawley rat, both sexes, plasma | oral, 100 mg/kg of parent drug, 4 (unit not given) | higher = more metabolite | plasma peak area | 391000 a.u.
CNC(=O)c1cc(Cl)c(OC(C)(C)C(=O)O)cc1OC[C@@H](O)CN1CCC2(CC1)Cc1cc(Cl)ccc1O2 | – | – | healthy human volunteers, plasma | inhaled, dose not given | – | Clast | 0.044 nM
CCc1cc(C(=O)NC)c2nccc(N3CCc4c(cc(Cn5ccnc5)cc4-c4cn(C)nc4C(F)(F)F)C3=O)c2c1 | – | item: TP | Sprague Dawley rat | oral, 50 mg/kg once daily, 7 days | reference: vehicle | change in clinical chemistry or haematology parameter | -4.7%
Cc1ccc2c(c1)C(=O)[C@]1(O)CCN(c3ccc4nc(C)ccc4c3)C1=N2 | – | – | rat, plasma | subcutaneous, 70 mg/kg, 1 h | – | plasma concentration | 3.6 ± 0.4 µM
O=C(O)CSc1nnc(Br)n1-c1ccc(C2CC2)c2ccccc12 | – | – | KM mouse, chronic hyperuricaemia model | dose not given, day 26 | – | body weight | 38.8 g and 41.8 g and 38.3 g and 37.2 g and 35.1 g and 32.5 g
Cc1cc(Nc2ccc(S(F)(F)(F)(F)F)cc2)n2nc(C(C)(F)F)nc2n1 | – | – | Plasmodium vivax malaria patients | oral, 600 mg | – | adverse event Diarrhoea | 0%
COc1c(N2C[C@@H]3CCCN[C@@H]3C2)c(F)cc2c(=O)c(C(=O)O)cn(C3CC3)c12 | – | – | male Hartley guinea pigs, anaesthetized | intravenous, 10 mg/kg over 10 min, after infusion | – | mean blood pressure | 32 ± 0.5 mmHg
CC[C@H](C)[C@@H]([C@@H](CC(=O)N1CCC[C@H]1[C@H](OC)[C@@H](C)C(=O)N[C@@H](Cc1ccccc1)C(=O)NCCCO)OC)N(C)C(=O)[C@@H](NC(=O)[C@H](C(C)C)N(C)C)C(C)C | – | – | human liver microsomes 1 mg/mL | 1 µM, with: ketoconazole and CYP3cide | – | metabolism via other pathways | ≤ 11.9%
N#Cc1ccc2c(c1)[C@H]1CCCN(C(=O)c3ccc4[nH]cnc4c3)[C@H]1C2 | – | – | human males | 10 mg, day 7 | – | total testosterone level | 12.5 nmol/L
O=C(O)CCC(=O)O.[2H]C([2H])([2H])Oc1cc(C)c2[nH]ccc2c1CN1CC[C@@H](C2CC2)C[C@H]1c1ccc(C(=O)O)cc1 | – | – | healthy Chinese subjects | 125 mg twice daily, multiple ascending dose | – | TEAE elevated monocyte | 12.5%
CC(C)(C(=O)N1CCOc2c(C#N)cncc2C1)C(F)F | – | item: vessel puncture site hypoaesthesia | healthy humans, both sexes | oral, 40 mg single dose | – | subjects with TEAE | 16.7%
C=CC(=O)Nc1cc(Nc2nccc(-c3cn(C)c4ccccc34)n2)c(OC)cc1N(C)CCN(C)C | – | – | human patients | oral, cycle 3 day 1, safety run-in, mean, with: pemetrexed + cisplatin | – | CLss/F | 17.2 L/h
Cc1cc(-c2nccc3c2ccn3CC(=O)Nc2ccc(-c3cnccn3)cn2)ccn1 | – | – | healthy human volunteers | oral, 7 mg single dose, single ascending dose | – | application site scab incidence | 16.7%
CCC(=O)N(CCC(c1ccc2c(c1)OCO2)c1ccccc1OC)Cc1ccccc1 (centres unmarked) | – | – | female athymic nude mouse, blood | i.p., 60 mg/kg twice daily, 14 days, group mean | – | CK | 126 U/L
CN(C)C(=O)c1ncccc1O | – | – | – | – | – | pKa (basic) | 2.3
C[C@H]1Oc2cc(cnc2N)-c2c(nn(C)c2C#N)CN(C)C(=O)c2ccc(F)cc21 | – | – | human patients, plasma | oral, cycle 2 day 1, mean, with: avelumab | – | Tlast | 19 h
Cc1cc(Nc2cc3ncccc3c(N[C@@H]3C[C@H]4CC[C@@H](C3)N4CCC#N)n2)n[nH]1 | – | – | healthy human subjects | oral, 100 mg, 14 days, multiple ascending dose | – | papular rash incidence | 17%
Cl.[2H]C([2H])([2H])CC(=O)c1cnc(NC(=O)C2CC2)cc1Nc1cccc(-c2ncn(C([2H])([2H])[2H])n2)c1OC | – | – | human, non-fasted | oral, 60 mg once daily, day 14, multiple dose, tablet, geometric mean | – | half-life | 574 min
C=CC(=O)Nc1cc(Nc2ncc(C(=O)OC(C)C)c(-c3cn(C)c4ccccc34)n2)c(OC)cc1N(C)CCN(C)C | – | saturable absorption PK model | mouse | – | – | maximum absorption rate | 3.29 µmol/h
CN1C(C(=O)Nc2ccc(F)cn2)=C(O)c2ccccc2S1(=O)=O | – | – | – | – | – | pKa (basic) | < 2

SMILES | tested on | assay | test system | conditions | how to read | endpoint | value
CCCCOC(=O)N1CCN(C(=O)[C@H](CP(=O)(O)O)NC(=O)c2cc(N3CC[C@H](OC)C3)nc(-c3ccccc3)n2)CC1 | – | item: alanine aminotransferase | human, blood | 8 mg, 24 h | – | change from baseline | -0.8 ± 4.1 U/L
Cc1ccc2cccc(C(=O)O)c2c1 | – | – | sheep erythrocytes | 1 h, pH 7.5 | – | maximum haemolysis | 2.62%
Cn1c(C(F)(F)F)cc(=O)n(-c2cc(Oc3cccnc3OCC(=O)O)c(Cl)cc2F)c1=O | – | – | beagle dog, male, plasma | oral capsule, 300 mg/kg/day epyrifenacil, day 1, 90-day study | – | Tmax | 6 h
CCN1/C(=C/C(C)=O)Sc2ccc(F)cc21 | – | – | cynomolgus monkey | oral, 100 mg/kg, 0.5 h post-dose | – | QRS duration | 35 ± 1 ms
Cc1c(Br)cc(NC(=O)C(c2ccccc2)S(=O)(=O)O)cc1Br (centres unmarked) | – | – | CD-1 mice, whole blood | intravenous, 2 mg/kg | – | unbound C0 | < 30 nM
COc1cc2c(Nc3ccc(Cl)c(Cl)c3F)ncnc2cc1OC[C@@H]1C[C@@H]2CN(C)C[C@@H]2C1 | – | – | FVB wild-type mice, brain | intraperitoneal infusion (osmotic pump), 10 µg/h, 48 h | – | unbound brain concentration | 3.24 nM
Cc1cc(-c2ccc3cc[nH]c(=O)c3c2)ccc1O[C@H]1O[C@H](CO)[C@@H](O)[C@H](O)[C@@H]1O | – | – | male Sprague-Dawley rat, plasma | intravenous, 3 mg/kg, group mean | – | C0 | 504 ng/mL
CC1(C)S[C@@H]2[C@H](NC(=O)[C@H](N)c3ccc(O)cc3)C(=O)N2[C@H]1C(=O)O | – | – | male Hartley guinea pigs, anaesthetized | intravenous, 10 mg/kg over 10 min, after infusion | – | mean blood pressure | 37 ± 0.2 mmHg
COc1cc2c3c(n(CCCN4CCOCC4)c(=O)c2cc1OC)-c1cc2c(cc1C3=O)OCO2 | – | – | beagle dog, female, plasma | oral, 1720 mg/m^2, single dose, gelatin capsules | – | Cmax | 244 ng/mL
O=C(O)CCCOc1ccc([18F])cc1-c1cc(-c2ccccc2C(F)(F)F)n(-c2ccccc2)n1 | – | gamma counting | male ddY mice, muscle | intravenous, 2.1 MBq, 5 min | – | radioactivity uptake | 1.02 ± 0.1 SUV
O=C(Nc1nc2cccc(-c3ccc(CN4CCS(=O)(=O)CC4)cc3)n2n1)C1CC1 | – | item: hypercholesterolaemia | human rheumatoid arthritis patients | oral, 150 mg once daily, 4 weeks, regardless of relatedness | – | treatment-emergent adverse events | 0%
CCC(C)n1ncn(-c2ccc(N3CCN(c4ccc(OCC5COC(Cn6cncn6)(c6ccc(Cl)cc6Cl)O5)cc4)CC3)cc2)c1=O (centres unmarked) | – | item: total protein decreased | healthy human participants | oral, 200 mg, compound alone cohort | – | adverse event incidence | 7%
CO[C@H]1C[C@@H]2CC[C@@H](C)[C@@](O)(O2)C(=O)C(=O)N2CCCC[C@H]2C(=O)O[C@H]([C@H](C)C[C@@H]2CC[C@@H](O)[C@H](OC)C2)CC(=O)[C@H](C)/C=C(\C)[C@@H](O)[C@@H](OC)C(=O)[C@H](C)C[C@H](C)/C=C/C=C/C=C/1C | – | – | healthy adult horses | intravenous, 0.06 mg/kg, 8 h | – | rectal temperature | 37.3 ± 0.2 °C
CCOc1c([C@H](C)n2nc(C)c3c(N)ncnc32)cc(Cl)c(F)c1[C@@H]1CNC(=O)C1 | – | item: QTcF change above 60 ms | previously treated B-cell malignancy | oral, 15 mg once daily, overall population | reference: baseline | ECG observations | 0%
CCC(CC)C(=O)Oc1cccc(C(O)CCN)c1.O=CO (centres unmarked) | – | scotopic ERG | BALB/cJ mice | intraperitoneal, 10 mg/kg, 4 h dark adaptation, with: 10,000 lx photobleach, 10 min | – | ERG b-wave amplitude | 63 µV and 56 µV and 73 µV and 149 µV and 220 µV and 166 µV
O=C(Nc1ccc(OC(F)(F)Cl)cc1)c1cnc(N2CC[C@@H](O)C2)c(-c2ccn[nH]2)c1 | – | per patient, item: hemoglobin decrease | human patients | oral, dose not given | – | grade ≥3 event rate | 0.7%
CNCCOC12CC3(C)CC(C)(CC(Cn4ncc(-c5ccc(N6CCc7cccc(C(=O)Nc8nc9ccccc9s8)c7C6)nc5C(=O)O)c4C)(C3)C1)C2 | – | – | beagle dog, male, anaesthetised | intravenous bolus, 0.03 mg/kg, 5 min | reference: baseline | QTcV interval change | -15 ms
C=CC(=O)N(C)CCOc1c(N)ncnc1-c1cc(F)cc(NC(=O)c2ccc(C3CC3)cc2F)c1C | – | – | human, whole blood | oral, 60 mg, single ascending dose | – | mean residence time | 1.76 h
O=[N+]([O-])c1cnc2ccccc2c1O | – | – | sheep erythrocytes | 1 h, pH 7.5 | – | maximum haemolysis | 2.5%
